Published values of several laboratories.
A part holds a random share of what one study measured.

Series 1
Target: RNA binding protein fox-1 homolog 2, RRM domain, GST-SBP tag (RBFOX2, Homo sapiens, UniProt O43251-10, residues 100-194)
Method: RNA Bind-n-Seq
Molecule type: RNA
Matrix: in vitro
Tested at: 365 nM
Notes: natural RNA segment, single round, ends assumed
Reference: no-protein control
Reading: higher = stronger binding
Target sequence (chain): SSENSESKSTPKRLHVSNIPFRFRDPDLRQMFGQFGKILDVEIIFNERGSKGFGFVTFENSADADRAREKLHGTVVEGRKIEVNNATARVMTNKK
Sequence	RBNS enrichment (R)
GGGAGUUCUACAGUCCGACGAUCUGUAUAAUAUGCUAUUAAUACACAUUAGAUGAUAACAGUUGUUCCAUGAAUGAUUCUAUGAAGCUAUGCAUCUUAGACCUCUUGAGCUGUGAAUUAGCACUAUUUUCUAUUGGAAUUCUCGGGUGCCAA	0.647
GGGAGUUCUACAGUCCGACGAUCUGCCAGGCUCAGUUCCCACCCACACCAGCACUUCCCUUCCUUCUGGUUUUCUGCCUGUGUGCUGCCCAAGGCUCAAUCAGUGCUAAGCUUCAUAGAUGGCAUAUACCCUUUGGAAUUCUCGGGUGCCAA	0.235
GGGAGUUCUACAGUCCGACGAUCGCCUACUUUACCUGGGCGUCCUGACCCAGCCCAGGGCCCGGUAACCGCAAAGCCCCCAGUCUUCAUGCAGACCUUGAACCCUCCGUCACACCCGCACCAUGUACUCCCAGUGGAAUUCUCGGGUGCCAA	0.751
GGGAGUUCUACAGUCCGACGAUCGAAUUUUUCUAAACAGGAACAGCCAUUUGCAAAAUGGGUUUUCAUAGUGAUUGCAUCAAUUAUAACAUUUAUCAUUAGCAGUUGAGAGCACAUGUUCAUAUAGCAAUGUAUGGAAUUCUCGGGUGCCAA	0.97
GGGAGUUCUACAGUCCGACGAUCACAGGCAAAAAUAUAGAAUGUUACAUAGUGUUGUGUGAUUAAAUUAUAGUUCCUGCUGUUAACAUUACCUUUUGAAACCUUGGCUCCAGUUUUGGUGCUUCUUAUACAAAUGGAAUUCUCGGGUGCCAA	2.51
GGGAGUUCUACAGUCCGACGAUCUUUCUACUAACUCCUUCCUUAAAGGCCAUAUCACUCCAUUUGCAUUAUUUGUGCAAAUGCCAGGGUUGGUUUUUAUUUUUAUUUUUGCUAUUUACCUAAAAAAAGAAAAUUGGAAUUCUCGGGUGCCAA	0.828
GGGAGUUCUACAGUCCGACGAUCAUUCAGCUACUCAGAUAAAUUCAGAAUGGGUCAAGGCACCUGCCUGUUUUUGUUGGUGCACAGAGAUUGACUUGAUUCAGAGAGACAAUUCACUCCAUCCCUAUGGCAGAUGGAAUUCUCGGGUGCCAA	0.498
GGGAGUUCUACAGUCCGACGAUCAGAGAUGACUCACUCACUCCGUGUGUUCUACAGUGCUGAGGUGGAUGACCUGGCCUACAGCAAAGGACCUUGAGCUUUAAAGUAUCACCUCCAUGGAAGCGGGGGCAUGCUGGAAUUCUCGGGUGCCAA	2.88
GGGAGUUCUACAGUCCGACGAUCUGCUUAAAAAUAUUUUCCUCACAAAAUUACUAUCAGGUCUGCCAUAAAUUCUUCCUAAGUUCUCUGCUCAUUAAUCUUCAGACCACAGUUACUAAAACUGUGGCUUAGUAUGGAAUUCUCGGGUGCCAA	0.497
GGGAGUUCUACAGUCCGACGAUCUGUAACCAGAUGAAUCAUGAUUUCUAAGACUUCUGAUCAAAAAUACUGUGAAAUAAAGAAUGUUAAUAACUUUGGACCUGGAGAUGAUUUGCCUUUCUGAACAUAAGAGAUGGAAUUCUCGGGUGCCAA	1.98
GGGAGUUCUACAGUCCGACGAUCUGGACAUGGCUUUGGACUUGGAGGAUAUCUUGGAUUGGAUUGCACAAUGGCUUAAAUUCUUGAUUCUGCCUCAGGAGAAAGAAUAGUCUUCAUGUUUCCACUCAUCCUUCUGGAAUUCUCGGGUGCCAA	0.365
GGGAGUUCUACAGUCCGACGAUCGGCCGGGGGCCCCCCGAUGCCUUGGCAGUGCCAGCCACGGGAACCAGGAGCGAGAGACGGUGCCAGAACGCCGGGGCCCGGGGCAACUCCGAGUGGGUGCUCAAGUCCCCUGGAAUUCUCGGGUGCCAA	0.306

Series 2
Target: PABPC1L2, full length, GST fusion (mouse, UniProt A0ABA7IW68)
Method: RNAcompete
Molecule type: RNA
Matrix: in vitro
Tested at: 20 nM
Notes: 7-mer, probes averaged, single round
Reference: mean of 7-mers
Reading: higher = stronger binding
Residues (chain): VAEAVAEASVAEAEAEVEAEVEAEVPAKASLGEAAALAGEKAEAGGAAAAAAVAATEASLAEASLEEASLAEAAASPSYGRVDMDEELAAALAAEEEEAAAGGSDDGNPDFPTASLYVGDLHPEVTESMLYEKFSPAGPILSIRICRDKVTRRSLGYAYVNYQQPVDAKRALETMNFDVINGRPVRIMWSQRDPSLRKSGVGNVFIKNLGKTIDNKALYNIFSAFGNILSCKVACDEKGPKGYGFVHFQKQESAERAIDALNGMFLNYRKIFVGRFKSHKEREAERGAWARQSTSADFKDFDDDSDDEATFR
Sequence	7-mer Z-score
UAUCAAG	-0.0554
ACUUGUU	-0.414
CCCACGC	-0.393
AGGCUCU	-0.0899
CAACCAU	-0.146
UGCUAGG	0.113
UUAAACU	0.149
CACAUAG	-0.0464
UUGGCGC	-0.313
GCCGGCU	-0.219
CAGUCUG	-0.199
GCCGCGG	-0.374
AACACCG	0.461
UUCCCCU	-0.425
ACGACCA	0.135
AGCUGUU	-0.423
UACUAAA	0.878
GAACACA	0.191
AGACAUG	-0.0047
AACUACA	0.244

Series 3
Target: Sal-like protein 4, full length isoform A (SALL4, Homo sapiens, UniProt Q9UJQ4, residues 1-1053)
Chain of UniProt Q9UJQ4 (whole entry, looked up): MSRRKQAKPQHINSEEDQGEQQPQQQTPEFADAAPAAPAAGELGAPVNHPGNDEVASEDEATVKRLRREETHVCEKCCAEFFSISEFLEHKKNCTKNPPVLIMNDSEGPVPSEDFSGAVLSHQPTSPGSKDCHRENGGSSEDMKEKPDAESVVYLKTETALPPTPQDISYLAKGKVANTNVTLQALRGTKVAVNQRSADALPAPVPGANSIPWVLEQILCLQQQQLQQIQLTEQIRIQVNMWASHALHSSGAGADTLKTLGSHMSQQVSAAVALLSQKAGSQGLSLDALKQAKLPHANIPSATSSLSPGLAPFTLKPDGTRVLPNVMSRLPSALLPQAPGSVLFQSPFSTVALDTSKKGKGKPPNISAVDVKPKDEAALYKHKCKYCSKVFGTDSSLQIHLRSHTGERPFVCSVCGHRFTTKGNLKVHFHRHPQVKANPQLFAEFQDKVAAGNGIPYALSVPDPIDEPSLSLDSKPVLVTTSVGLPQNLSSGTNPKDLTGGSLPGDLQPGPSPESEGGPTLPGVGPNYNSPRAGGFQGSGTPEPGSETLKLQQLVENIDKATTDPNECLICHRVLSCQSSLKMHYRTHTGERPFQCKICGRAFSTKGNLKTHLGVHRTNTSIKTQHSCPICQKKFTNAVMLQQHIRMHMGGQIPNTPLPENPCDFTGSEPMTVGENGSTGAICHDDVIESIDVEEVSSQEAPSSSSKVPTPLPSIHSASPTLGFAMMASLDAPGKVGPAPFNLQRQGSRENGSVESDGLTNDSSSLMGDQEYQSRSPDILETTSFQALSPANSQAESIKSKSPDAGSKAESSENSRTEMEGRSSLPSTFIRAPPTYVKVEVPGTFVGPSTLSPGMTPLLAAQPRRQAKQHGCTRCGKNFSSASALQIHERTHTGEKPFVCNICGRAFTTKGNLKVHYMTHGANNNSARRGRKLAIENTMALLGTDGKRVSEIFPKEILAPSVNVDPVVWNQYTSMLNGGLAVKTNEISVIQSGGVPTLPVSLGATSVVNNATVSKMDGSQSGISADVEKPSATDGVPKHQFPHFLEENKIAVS
Method: universal PBM
Molecule type: double-stranded DNA, one strand shown
Matrix: in vitro
Tested at: 600 nM
Notes: 8-mer, flanks averaged, mean of replicates
Reading: higher = stronger binding
Sequence	E-score
AGGCTGGA	-0.166
CGTGCACA	-0.102
AATTAGGT	0.24
CAGATCAC	-0.0947
CGTAGGAG	-0.161
GCGGACGA	-0.282
ACCACACC	-0.208
TATCGATA	0.153
CGCGAATA	0.179
ATCAACCC	0.04
TCCAGCGA	-0.114
ACTTTACC	0.162
ACAGTACA	0.087
ACCTTGAA	0.0538
AGGAGACG	-0.326
CCTAGTCA	-0.051
CATTGGTC	-0.123
ACGGAGTC	-0.0899
GGAAGCTA	-0.165

Series 4
Target: RING finger protein unkempt homolog, zinc fingers 1-6, GST-SBP tag (UNK, Homo sapiens, UniProt Q9C0B0, residues 30-357)
Chain of UniProt Q9C0B0 (30-357, looked up): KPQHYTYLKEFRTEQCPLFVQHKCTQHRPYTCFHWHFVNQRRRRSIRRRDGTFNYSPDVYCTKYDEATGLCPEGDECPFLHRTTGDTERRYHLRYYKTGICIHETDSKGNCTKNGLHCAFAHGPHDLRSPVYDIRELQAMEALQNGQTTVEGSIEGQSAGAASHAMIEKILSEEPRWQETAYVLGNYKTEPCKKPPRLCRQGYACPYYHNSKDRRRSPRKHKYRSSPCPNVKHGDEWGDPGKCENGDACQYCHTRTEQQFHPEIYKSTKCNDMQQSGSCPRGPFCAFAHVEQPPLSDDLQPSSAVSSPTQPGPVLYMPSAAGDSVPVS
Method: RNA Bind-n-Seq
Molecule type: RNA
Matrix: in vitro
Tested at: not given
Notes: RNA with constant flanks, human and mouse sites, ends assumed
Reference: input RNA pool
Reading: higher = stronger binding
Sequence	bound/input enrichment [ratio]
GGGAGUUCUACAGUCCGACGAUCUUGGCUCUGGACUGGGCAUUGGAAGGGAAUGAGGGAGGAGGGGGCAGAAGCAGGCCGGGGCUGGCUUUGCUGCCUCUCCCAGGAGACAGGGCUACAGCUUCCAAACCUUUUGUGUGUUGACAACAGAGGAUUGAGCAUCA	0.25
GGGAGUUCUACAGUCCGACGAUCGAUGGCACAGCUUCUGGAUCUAUCUGUUGAUGAGUCCGAAGCCUUUCUCUCAAAUCUAGUAGUUAACAAGACCAUCUUUGCUAAAGUAGACAGAUUAGCAGGAAUUAUCAACUUCCAGAGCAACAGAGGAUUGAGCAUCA	1.68
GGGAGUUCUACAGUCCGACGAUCAUUUGGGGCAGUACCAGUCCAUACCAGCUGCGAUUUGUGAGUGGACCUGUGGUAAGAAGAAUAGAAAAGGCUCUCAGAGAUAAGGUUUUUUACAUGUGUAACAAUCCCAAGAUUUCCUAGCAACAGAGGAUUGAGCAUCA	0.888
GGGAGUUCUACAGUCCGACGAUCGAGCACAGCAAGACCCCUGAGGAGAGGAGCCUUCCUUCCGACCUGGCCUUCAACGGGGACCUGGCUAAGGCAGCCAGCUCGGAGCUACCUGCUGAUAUUUCCAAGCCCUGGAUUCCCUCACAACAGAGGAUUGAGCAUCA	0.125
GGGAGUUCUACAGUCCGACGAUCUCUUAUAAUAGUCUAGUGCUAUAGAUGUUCAUGGAUUGUUUGAUGCUCCAUAACUCCUCAUUUAGAUAACUUUUUAGUAACAGCAUCUUCCAGUGGCGACAAAAUAGUUGUCUCAAGUUGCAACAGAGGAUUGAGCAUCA	40.7
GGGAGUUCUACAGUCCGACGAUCUUCAAAAAGAGAAGACUUGAAAAUGGAAAAUCUCGAAACUUAAGACAGCGAGGUGACGACGAGUGACUGUGAAGCUAUGGAUGGAAGGGGUGUCCUUUCCAAGCUGCUCUGUGCUCUGUGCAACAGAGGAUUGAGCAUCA	0.326
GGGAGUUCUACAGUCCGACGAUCCUUAAAAUCAAAUGUAAAUCAAUUACAGAUUAAAAAAAAAAGCCUGUAUUUAACUCAUAUGAUCUCCCUUCAGCAACUUAUUUUGCUUUAAUUGCUUUAAAUCUUAAGCAAUAUUUUUUACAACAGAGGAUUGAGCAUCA	0.264
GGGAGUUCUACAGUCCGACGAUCCCGCUGGACAUCGAGUGGCUGAUAUCACCAGCUGAUAAUCAGAAGGUGGAUCAAGUGAUUAUUUUAUAUUCUGGAGACAAAAUUUAUGAUGACUACUAUCCAGAUCUGAAAGGCCGAGUACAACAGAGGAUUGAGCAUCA	0.308
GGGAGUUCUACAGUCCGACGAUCGAAAGAAAUGAAUGGAAAAAAAGGAGUGUCCAUCCUUUCCAUCUAUAAGUAUGUCAGUUCUAUAUAUAGAUACGAUGUUCAACGGAACAGGAGUCUUUUGAAACGGAUGCUGAAAUGUUUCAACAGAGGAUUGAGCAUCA	0.183
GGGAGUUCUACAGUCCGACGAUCAGCCGAGGAGACCCCGCGCAGUGCUGCCAACGCCCCGGUGGAGAAGCUGAGGUCAUCAUCAGAUUUGAAAUAUUUAAAGUGGAUACAAAACUAUUUCAGCAAUGCAGACAAUUAAGUGUGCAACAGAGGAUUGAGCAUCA	0.283
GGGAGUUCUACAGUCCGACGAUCGAGGAGAAGCCGCCUAAUCCUAUGGAAGGCAUGACAGAGGAGCAGAAGGAACAUGAGGCCAUGAAGCUAGUGAACAUGUUUGACAAGCUCUCCAGGCACAGAGUCAUCCAACCCAUGGGGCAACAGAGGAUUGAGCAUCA	0.157

For quick reference, copied from above (series 3):
Sequence	E-score
GCGGACGA	-0.282
ACAGTACA	0.087
GGAAGCTA	-0.165
AATTAGGT	0.24
AGGAGACG	-0.326
CGTGCACA	-0.102
